# Measurements from different studies.
# Lines come from different studies, so protocols differ. “And” joins repeats or separate records; there may be more than shown. Numbers after ± are the reported error.
# Glutamate NMDA receptor; Grin1/Grin2c: Glutamate NMDA receptor; Grin1/Grin2c (Rattus norvegicus, UniProt P35439+Q00961)
# Chain of UniProt Q00961 (whole entry, looked up): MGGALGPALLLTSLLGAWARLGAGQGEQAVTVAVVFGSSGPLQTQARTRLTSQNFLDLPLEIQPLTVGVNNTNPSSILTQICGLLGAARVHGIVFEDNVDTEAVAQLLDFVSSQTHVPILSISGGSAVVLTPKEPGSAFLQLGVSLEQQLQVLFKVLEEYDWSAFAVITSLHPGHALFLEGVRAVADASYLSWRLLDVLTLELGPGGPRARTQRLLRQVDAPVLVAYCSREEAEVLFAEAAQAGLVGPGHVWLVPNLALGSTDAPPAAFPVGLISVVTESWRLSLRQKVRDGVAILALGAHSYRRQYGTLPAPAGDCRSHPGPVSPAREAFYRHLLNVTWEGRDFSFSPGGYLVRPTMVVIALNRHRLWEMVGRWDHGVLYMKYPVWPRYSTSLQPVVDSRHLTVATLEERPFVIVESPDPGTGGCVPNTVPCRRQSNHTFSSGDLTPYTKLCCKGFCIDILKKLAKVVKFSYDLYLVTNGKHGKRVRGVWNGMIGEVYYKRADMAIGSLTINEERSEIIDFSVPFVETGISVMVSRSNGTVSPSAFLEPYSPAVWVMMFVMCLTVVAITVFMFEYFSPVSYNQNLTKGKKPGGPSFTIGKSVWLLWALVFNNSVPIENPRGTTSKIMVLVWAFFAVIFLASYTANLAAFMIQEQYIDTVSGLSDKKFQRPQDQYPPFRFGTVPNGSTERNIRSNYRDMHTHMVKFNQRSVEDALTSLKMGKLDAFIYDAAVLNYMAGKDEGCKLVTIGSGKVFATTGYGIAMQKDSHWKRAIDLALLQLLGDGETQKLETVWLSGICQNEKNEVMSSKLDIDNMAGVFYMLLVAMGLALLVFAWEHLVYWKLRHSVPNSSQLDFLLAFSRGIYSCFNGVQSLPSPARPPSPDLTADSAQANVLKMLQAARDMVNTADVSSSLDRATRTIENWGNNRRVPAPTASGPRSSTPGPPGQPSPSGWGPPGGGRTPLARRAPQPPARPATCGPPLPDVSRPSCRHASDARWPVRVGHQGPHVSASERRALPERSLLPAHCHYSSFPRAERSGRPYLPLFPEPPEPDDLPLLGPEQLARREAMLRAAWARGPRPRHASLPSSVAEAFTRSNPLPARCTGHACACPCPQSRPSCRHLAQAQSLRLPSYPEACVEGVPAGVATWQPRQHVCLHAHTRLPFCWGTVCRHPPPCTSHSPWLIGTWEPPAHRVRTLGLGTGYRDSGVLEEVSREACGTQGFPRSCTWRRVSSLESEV
# EPHX2: Bifunctional epoxide hydrolase 2 (EPHX2, Homo sapiens, UniProt P34913)
# Chain of UniProt P34913 (whole entry, looked up): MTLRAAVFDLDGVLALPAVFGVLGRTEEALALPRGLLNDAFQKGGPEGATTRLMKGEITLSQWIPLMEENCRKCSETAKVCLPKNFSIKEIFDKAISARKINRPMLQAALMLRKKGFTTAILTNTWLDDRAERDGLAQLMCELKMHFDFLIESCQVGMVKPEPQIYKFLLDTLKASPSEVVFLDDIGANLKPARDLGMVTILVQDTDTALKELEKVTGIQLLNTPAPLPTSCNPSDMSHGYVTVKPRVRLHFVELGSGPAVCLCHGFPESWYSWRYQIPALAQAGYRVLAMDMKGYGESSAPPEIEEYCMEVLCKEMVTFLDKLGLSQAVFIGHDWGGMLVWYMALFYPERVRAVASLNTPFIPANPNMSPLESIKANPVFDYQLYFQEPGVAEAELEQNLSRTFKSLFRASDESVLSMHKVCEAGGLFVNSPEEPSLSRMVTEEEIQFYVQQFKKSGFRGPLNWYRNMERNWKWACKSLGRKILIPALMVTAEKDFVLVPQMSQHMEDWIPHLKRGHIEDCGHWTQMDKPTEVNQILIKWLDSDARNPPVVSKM
# Chain of UniProt P30872 (whole entry, looked up): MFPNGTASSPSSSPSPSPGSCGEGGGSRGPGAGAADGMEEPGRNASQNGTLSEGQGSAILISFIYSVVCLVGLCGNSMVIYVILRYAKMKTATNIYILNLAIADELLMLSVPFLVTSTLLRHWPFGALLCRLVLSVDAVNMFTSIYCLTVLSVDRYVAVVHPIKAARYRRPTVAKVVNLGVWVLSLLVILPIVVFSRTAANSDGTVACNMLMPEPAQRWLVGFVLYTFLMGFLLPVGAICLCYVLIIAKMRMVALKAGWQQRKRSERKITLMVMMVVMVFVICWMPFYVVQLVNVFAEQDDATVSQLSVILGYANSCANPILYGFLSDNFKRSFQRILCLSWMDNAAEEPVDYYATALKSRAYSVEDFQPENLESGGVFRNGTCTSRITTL
# Chain of UniProt P28074 (whole entry, looked up): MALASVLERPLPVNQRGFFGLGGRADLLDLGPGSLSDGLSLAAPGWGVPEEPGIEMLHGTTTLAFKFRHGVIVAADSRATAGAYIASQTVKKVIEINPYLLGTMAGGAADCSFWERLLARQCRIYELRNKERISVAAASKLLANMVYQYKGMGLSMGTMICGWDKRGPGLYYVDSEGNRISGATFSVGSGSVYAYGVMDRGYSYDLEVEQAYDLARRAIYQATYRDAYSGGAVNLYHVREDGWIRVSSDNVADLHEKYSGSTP
# Chain of UniProt Q9UBN7 (whole entry, looked up): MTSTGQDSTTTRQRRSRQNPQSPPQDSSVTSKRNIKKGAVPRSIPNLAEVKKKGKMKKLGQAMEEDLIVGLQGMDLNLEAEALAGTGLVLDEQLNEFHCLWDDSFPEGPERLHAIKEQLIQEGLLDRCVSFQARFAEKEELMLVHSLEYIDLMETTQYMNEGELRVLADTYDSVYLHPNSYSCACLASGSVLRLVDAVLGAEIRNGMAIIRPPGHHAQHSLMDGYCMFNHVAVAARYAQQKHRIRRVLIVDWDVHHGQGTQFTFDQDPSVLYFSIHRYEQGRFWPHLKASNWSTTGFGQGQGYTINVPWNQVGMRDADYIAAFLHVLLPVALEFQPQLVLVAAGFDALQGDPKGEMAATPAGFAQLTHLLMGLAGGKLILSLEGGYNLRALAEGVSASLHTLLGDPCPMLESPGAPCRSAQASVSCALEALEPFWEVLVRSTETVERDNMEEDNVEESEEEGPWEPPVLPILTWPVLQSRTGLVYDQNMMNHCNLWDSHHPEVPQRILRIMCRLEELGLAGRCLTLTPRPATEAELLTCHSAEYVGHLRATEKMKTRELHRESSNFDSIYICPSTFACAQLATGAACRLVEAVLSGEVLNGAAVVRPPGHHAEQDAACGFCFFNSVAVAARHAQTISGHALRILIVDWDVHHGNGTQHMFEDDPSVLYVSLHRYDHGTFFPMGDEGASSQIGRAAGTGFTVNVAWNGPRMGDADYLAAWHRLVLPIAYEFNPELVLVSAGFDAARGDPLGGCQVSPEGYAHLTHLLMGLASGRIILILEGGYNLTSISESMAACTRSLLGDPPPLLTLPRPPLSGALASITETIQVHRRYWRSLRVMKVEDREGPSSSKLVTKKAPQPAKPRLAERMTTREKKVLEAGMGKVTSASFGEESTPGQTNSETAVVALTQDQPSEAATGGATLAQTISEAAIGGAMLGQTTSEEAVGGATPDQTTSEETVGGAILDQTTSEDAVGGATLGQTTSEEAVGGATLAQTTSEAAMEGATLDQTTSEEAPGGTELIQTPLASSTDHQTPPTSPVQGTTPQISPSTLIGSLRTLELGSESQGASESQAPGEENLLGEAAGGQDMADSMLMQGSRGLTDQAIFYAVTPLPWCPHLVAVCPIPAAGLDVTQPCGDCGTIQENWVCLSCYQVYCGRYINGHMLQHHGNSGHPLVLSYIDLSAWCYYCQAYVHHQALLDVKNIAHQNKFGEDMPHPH
# Chain of UniProt P20701 (whole entry, looked up): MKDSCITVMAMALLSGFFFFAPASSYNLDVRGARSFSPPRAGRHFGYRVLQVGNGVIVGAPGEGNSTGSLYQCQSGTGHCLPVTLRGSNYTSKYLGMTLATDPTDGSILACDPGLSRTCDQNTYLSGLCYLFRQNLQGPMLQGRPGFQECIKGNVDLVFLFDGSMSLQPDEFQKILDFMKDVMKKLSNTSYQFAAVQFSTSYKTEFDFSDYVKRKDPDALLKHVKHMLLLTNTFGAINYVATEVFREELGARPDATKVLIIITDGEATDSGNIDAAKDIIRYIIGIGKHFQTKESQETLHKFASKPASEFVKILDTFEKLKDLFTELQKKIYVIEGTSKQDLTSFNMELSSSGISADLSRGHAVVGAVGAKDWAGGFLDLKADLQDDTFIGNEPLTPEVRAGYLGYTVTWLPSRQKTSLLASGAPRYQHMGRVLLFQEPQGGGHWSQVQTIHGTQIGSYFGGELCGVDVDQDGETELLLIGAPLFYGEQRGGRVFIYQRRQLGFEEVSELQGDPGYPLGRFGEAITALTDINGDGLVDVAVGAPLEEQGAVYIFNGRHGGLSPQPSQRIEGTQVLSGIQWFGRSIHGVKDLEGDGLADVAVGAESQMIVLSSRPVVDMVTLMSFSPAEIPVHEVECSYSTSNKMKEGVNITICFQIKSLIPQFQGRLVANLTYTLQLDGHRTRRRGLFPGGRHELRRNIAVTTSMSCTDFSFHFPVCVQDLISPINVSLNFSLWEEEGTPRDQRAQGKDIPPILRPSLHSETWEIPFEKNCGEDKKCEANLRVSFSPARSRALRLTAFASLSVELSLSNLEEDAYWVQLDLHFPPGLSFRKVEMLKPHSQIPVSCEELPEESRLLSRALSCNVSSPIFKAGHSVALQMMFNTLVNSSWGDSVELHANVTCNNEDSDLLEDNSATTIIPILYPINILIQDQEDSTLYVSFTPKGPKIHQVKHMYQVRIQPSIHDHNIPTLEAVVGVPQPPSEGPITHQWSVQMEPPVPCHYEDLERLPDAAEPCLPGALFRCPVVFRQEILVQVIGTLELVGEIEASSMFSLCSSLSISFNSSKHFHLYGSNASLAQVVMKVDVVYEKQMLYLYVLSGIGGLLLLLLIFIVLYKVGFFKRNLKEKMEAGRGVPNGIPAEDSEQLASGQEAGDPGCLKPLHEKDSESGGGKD
# Chain of UniProt P20618 (whole entry, looked up): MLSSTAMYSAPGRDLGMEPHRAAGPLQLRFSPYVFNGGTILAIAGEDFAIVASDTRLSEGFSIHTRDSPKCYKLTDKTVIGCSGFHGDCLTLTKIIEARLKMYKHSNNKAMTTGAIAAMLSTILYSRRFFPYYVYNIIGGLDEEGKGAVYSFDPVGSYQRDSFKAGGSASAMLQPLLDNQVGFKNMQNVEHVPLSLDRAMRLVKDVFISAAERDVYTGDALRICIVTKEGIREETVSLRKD
Compound,target,assay,system,setting,IC50
CC(C)NCc1ccc(C[C@@H]2NC(=O)[C@@H](N(C)C(=O)c3ccc4ccccc4c3)NC(=O)[C@H](Cc3ccccc3)NC(=O)[C@@H](N)CSSC[C@@H](C(N)=O)NC(=O)[C@H](Cc3ccc(O)cc3)NC2=O)cc1,"Somatostatin receptor type 1 (SSTR1, Homo sapiens, UniProt P30872)","ligand displacement, radioligand",,cell membranes,7.3 nM and 6 nM
COC(=O)C1=C(C)NC(C)=C([N+](=O)[O-])[C@@H]1c1ccccc1C(F)(F)F,"Voltage-dependent T-type calcium channel subunit alpha-1I (CACNA1I, Homo sapiens, UniProt Q9P0X4)","inhibitor, FLIPR calcium","HEK293 with GCaMP6s-CAAX, Kir2.3",together with: KCl at EC90,16000 nM
COc1ccc2nc(/C=C/c3cccc([N+](=O)[O-])c3)n(-c3ccc(C(=O)O)cc3)c(=O)c2c1,Glutamate NMDA receptor; Grin1/Grin2c,"ion current, two-electrode voltage clamp",,oocytes,7100 nM
C=CC(C)(C)c1cc(-c2oc3cc(O)ccc3c2Cc2cc(-c3cc4cc(C(C)(C)C=C)c(O)cc4oc3=O)c(O)cc2O)c(O)cc1O,"Transcription factor p65 (RELA, Homo sapiens, UniProt Q04206)","NF-κB activity, inhibitor",,,1500 nM
C[C@]12C[C@@H]3C[C@](C)(C1)C[C@@](NC(=O)Nc1ccc(C(=O)N4CCC[C@H](C(=O)NCCCCCC(=O)NO)C4)cc1F)(C3)C2,EPHX2,"enzyme activity, inhibitor, fluorescence",,,0.4 nM
CCOC(=O)/C(O)=C/C(=O)c1cn(Cc2ccc(F)cc2)c2ccc(Cl)cc2c1=O,"Gag-Pol polyprotein, integrase (gag-pol, Human immunodeficiency virus 1, UniProt P12497)","3'-processing, inhibitor, gel-based",,together with: Mg2+,> 333000 nM
C[C@]12C[C@@H]3C[C@](C)(C1)C[C@@](NC(=O)Nc1ccc(C(=O)N4CCC[C@H](C(=O)NCCCCC(=O)NO)C4)cc1F)(C3)C2,EPHX2,"enzyme activity, inhibitor, fluorescence",,,0.7 nM
Cn1ccnc1C(=O)C1CC1c1ccc(CC(=O)Nc2ccc(Br)cc2)cc1 (stereo not shown),"Protein deacetylase HDAC6 (HDAC6, Homo sapiens, UniProt Q9UBN7)","enzyme activity, inhibitor",,,> 200000 nM
O=C(OC(C(F)(F)F)C(F)(F)F)N1CCC(CCn2ccc3c(F)cccc32)CC1,"Monoglyceride lipase (MGLL, Homo sapiens, UniProt Q99685)","enzyme activity, inhibitor",,,470 nM
CC(C)C[C@H](NC(=O)[C@H](Cc1ccc2ccccc2c1)NC(=O)[C@H](CCC(=O)O)NC(=O)c1ccnc(C(F)(F)F)n1)C(=O)NC1CC1c1ccccc1 (stereo partly shown),"Adenomatous polyposis coli protein (APC, Homo sapiens, UniProt P25054)","ligand displacement, FP",,,3050 nM
O=C(Nc1ccc(C(=O)Nc2ccc(C(=O)Nc3ccc(S(=O)(=O)O)c4cc(S(=O)(=O)O)cc(S(=O)(=O)O)c34)cc2)cc1)Nc1ccc(C(=O)Nc2ccc(C(=O)Nc3ccc(S(=O)(=O)O)c4cc(S(=O)(=O)O)cc(S(=O)(=O)O)c34)cc2)cc1,"Ubiquitin-associated and SH3 domain-containing protein B (UBASH3B, Homo sapiens, UniProt Q8TF42)","enzyme activity, inhibitor, fluorescence",,,2400 nM
O=C(COc1cccc(-c2ccccc2)c1)Nc1cc(Cl)ccc1C(=O)O,"Transient receptor potential cation channel subfamily M member 4 (TRPM4, Homo sapiens, UniProt Q8TD43)","ion flux, inhibitor, fluorescence",,,2600 nM
CC(C)C[C@H](NC(=O)[C@@H](NC(=O)N[C@H](C(=O)OC(C)(C)C)C(C)C)C(C)C)C(=O)N[C@@H](CC(C)C)C(=O)[C@@]1(C)CO1,rabbit 26S proteasome β1,"caspase-like activity, inhibitor, fluorogenic substrate",purified proteasome,"30 min, 37 °C, together with: fluorogenic caspase-like substrate",> 300 nM
COc1ccccc1-c1cn(CCN2CCOCC2)c2ncnc(N)c12,"Calcium-dependent protein kinase 1 (CDPK1, Plasmodium falciparum, UniProt P62344)","enzyme activity, inhibitor",,,> 2000 nM
COc1cc(/C=C/c2ccc(O)cc2)cc(OC)c1,"UDP-glucuronosyltransferase 1A6 (UGT1A6, Homo sapiens, UniProt P19224)","enzyme activity, inhibitor",human liver microsomes,"60 min, together with: serotonin 8 mM",15100 ± 2800 nM
O=C(O)c1cc2cc(Br)ccc2c(Br)c1O,Glutamate NMDA receptor; Grin1/Grin2c,"ion current, two-electrode voltage clamp",,oocytes,5040 nM
COc1cc2ncnc(Nc3ccc(Cl)cc3F)c2cc1OC,"Proto-oncogene tyrosine-protein kinase Src (SRC, Homo sapiens, UniProt P12931)","enzyme activity, inhibitor, ADP detection",,,330 nM
O=C1CCOc2cc(OCc3ccc(C(F)(F)F)cc3)ccc21,"Amine oxidase [flavin-containing] B (MAOB, Homo sapiens, UniProt P27338)","enzyme activity, inhibitor, fluorescence",,,3.8 nM
Cc1ccc(S(=O)(=O)N[C@@H](CC(=O)NC(C)(C)C)C(=O)N[C@@H](C)CC(=O)NCc2cccc3ccccc23)cc1,"Proteasome component C5/PSMB5 (Homo sapiens, UniProt P20618+P28074)","chymotrypsin-like activity, inhibitor",,together with: suc-LLVY-AMC,74900 ± 10500 nM
C[C@]12C[C@@H]3C[C@](C)(C1)C[C@@](NC(=O)Nc1ccc(C(=O)N4CCC[C@H](C(=O)NCCCCCCC(=O)NO)C4)cc1)(C3)C2,EPHX2,"enzyme activity, inhibitor, fluorescence",,,0.3 nM
CS(=O)(=O)c1cccc(C[C@H](NC(=O)c2c(Cl)cc3c(c2Cl)CCN(C(=O)Cc2ccc4occc4c2)C3)C(=O)O)c1,"Integrin alpha-L, with integrin beta-2 (ITGAL, Homo sapiens, UniProt P20701)","cell adhesion, antagonist",Jurkat,together with: ICAM-1,3140 nM
Nc1ncnc2c1ncn2[C@@H]1O[C@H](COP(=O)(O)OP(=O)(O)C(Cl)(Cl)P(=O)(O)O)[C@@H](O)[C@H]1O,"Fibroblast growth factor receptor 2 (FGFR2, Homo sapiens, UniProt P21802)","enzyme activity, inhibitor, HotSpot kinase",,together with: ATP 1 µM,50 nM

# Excerpt of the above:
Compound,target,assay,system,setting,IC50
O=C(OC(C(F)(F)F)C(F)(F)F)N1CCC(CCn2ccc3c(F)cccc32)CC1,"Monoglyceride lipase (MGLL, Homo sapiens, UniProt Q99685)","enzyme activity, inhibitor",,,470 nM
CC(C)C[C@H](NC(=O)[C@H](Cc1ccc2ccccc2c1)NC(=O)[C@H](CCC(=O)O)NC(=O)c1ccnc(C(F)(F)F)n1)C(=O)NC1CC1c1ccccc1 (stereo partly shown),"Adenomatous polyposis coli protein (APC, Homo sapiens, UniProt P25054)","ligand displacement, FP",,,3050 nM
